Published values gathered from unrelated publications.
Parts stem from different laboratories: compare values within a part only. Values joined by “and” are separate records of one study, mostly repeats; a detail may differ.
Sequence of UniProt Q8N5S9 (whole entry, looked up): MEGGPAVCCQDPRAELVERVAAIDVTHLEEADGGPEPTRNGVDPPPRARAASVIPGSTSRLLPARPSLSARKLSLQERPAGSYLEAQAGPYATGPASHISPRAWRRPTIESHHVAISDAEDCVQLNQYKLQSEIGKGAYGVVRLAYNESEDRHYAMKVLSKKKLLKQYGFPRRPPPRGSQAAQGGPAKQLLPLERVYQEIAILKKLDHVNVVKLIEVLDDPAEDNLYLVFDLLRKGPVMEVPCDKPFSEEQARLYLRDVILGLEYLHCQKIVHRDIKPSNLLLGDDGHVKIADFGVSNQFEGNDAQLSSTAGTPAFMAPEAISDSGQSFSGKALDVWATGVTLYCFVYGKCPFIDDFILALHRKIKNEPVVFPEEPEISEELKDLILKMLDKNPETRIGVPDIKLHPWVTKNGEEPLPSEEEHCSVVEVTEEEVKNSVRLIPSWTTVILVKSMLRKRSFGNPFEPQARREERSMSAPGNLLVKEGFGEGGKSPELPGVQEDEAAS
Sequence of UniProt O43283 (whole entry, looked up): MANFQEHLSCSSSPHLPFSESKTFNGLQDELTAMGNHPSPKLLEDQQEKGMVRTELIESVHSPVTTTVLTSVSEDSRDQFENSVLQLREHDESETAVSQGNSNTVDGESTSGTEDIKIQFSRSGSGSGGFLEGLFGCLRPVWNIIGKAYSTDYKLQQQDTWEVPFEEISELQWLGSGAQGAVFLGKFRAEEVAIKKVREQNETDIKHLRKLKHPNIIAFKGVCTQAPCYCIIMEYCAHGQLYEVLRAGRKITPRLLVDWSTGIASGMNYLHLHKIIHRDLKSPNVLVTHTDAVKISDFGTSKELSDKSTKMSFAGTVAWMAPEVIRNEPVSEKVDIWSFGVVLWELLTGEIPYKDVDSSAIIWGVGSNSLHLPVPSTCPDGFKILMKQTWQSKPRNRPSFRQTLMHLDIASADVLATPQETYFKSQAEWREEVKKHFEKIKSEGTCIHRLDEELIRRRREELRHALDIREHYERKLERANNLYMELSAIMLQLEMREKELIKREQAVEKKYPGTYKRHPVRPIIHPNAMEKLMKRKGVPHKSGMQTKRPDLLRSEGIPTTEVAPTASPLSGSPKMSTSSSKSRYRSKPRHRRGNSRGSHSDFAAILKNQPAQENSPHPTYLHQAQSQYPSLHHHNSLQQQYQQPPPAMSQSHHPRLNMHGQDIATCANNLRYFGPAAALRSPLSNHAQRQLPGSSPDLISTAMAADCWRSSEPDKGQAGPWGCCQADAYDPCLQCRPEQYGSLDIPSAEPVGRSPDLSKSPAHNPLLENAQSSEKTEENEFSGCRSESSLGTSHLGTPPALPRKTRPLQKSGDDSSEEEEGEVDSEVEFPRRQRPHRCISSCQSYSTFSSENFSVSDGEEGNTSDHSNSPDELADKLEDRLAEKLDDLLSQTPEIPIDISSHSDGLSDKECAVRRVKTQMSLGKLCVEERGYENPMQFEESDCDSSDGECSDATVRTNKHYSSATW
Sequence of UniProt Q9UKI8 (whole entry, looked up): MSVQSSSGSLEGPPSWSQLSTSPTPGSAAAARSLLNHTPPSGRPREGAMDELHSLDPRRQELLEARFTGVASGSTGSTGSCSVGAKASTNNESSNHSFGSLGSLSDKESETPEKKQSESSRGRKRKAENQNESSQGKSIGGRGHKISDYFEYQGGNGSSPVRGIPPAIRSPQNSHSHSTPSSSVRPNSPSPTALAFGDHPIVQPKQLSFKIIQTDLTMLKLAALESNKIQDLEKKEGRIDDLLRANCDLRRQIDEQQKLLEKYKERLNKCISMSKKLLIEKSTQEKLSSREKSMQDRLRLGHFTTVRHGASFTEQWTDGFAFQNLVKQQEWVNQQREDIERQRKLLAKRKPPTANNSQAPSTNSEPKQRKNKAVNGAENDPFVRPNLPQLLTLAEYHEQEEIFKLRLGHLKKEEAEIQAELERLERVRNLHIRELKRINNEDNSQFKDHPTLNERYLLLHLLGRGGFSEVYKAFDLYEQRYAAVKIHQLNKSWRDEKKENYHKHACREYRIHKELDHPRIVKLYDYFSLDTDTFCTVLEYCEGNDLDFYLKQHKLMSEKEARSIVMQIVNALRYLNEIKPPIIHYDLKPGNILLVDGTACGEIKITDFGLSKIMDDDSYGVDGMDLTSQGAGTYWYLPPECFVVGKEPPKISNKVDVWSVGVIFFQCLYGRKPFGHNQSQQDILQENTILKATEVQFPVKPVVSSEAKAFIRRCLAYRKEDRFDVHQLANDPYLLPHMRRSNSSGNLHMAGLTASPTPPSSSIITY
Sequence of UniProt P24723 (whole entry, looked up): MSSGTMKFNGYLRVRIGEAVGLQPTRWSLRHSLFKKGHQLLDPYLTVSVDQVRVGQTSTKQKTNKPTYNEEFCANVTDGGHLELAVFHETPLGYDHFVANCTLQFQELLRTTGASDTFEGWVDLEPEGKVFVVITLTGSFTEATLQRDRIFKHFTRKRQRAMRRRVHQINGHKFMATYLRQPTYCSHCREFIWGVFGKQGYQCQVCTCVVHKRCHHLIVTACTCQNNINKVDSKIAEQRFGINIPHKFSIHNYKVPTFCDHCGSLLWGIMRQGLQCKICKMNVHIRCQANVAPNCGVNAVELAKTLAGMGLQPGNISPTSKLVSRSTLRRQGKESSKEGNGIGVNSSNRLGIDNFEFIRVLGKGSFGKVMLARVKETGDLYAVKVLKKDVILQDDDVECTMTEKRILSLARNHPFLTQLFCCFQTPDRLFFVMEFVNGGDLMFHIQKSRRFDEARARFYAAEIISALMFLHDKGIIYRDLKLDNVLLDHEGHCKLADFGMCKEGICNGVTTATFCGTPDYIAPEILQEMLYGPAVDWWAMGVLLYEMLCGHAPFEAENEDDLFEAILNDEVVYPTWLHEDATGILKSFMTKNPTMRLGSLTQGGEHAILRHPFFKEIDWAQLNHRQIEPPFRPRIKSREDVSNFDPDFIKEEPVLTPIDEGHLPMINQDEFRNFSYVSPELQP
Sequence of UniProt Q9UHD2 (whole entry, looked up): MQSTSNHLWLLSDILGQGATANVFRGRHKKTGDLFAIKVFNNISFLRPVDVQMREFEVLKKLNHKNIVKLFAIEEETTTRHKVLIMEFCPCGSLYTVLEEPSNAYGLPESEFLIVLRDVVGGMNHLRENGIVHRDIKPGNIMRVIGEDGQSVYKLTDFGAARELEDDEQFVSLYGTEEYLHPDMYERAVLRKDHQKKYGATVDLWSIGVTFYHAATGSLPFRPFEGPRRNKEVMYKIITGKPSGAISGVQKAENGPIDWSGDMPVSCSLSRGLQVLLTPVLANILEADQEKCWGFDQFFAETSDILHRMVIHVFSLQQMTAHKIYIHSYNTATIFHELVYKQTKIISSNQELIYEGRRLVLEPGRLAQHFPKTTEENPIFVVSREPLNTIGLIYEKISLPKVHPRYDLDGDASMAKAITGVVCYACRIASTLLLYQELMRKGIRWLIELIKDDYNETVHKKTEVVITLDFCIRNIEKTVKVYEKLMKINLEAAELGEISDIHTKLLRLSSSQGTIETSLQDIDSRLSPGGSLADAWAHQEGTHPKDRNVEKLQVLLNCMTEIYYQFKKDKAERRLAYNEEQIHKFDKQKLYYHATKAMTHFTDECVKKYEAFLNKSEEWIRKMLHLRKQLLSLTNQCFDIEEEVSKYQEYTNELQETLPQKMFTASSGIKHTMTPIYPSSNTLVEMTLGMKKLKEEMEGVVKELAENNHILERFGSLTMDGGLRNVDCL
Sequence of UniProt P53778 (whole entry, looked up): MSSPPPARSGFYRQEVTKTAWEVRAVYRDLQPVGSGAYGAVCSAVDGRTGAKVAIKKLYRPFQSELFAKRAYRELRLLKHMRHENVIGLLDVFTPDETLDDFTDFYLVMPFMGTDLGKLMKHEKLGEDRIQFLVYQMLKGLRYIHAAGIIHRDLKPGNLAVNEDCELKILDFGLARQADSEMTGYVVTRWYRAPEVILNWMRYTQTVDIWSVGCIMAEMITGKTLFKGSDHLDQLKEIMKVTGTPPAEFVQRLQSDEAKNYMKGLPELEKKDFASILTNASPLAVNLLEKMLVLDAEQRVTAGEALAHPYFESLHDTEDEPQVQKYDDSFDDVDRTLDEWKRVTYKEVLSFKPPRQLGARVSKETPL

Study 1
SMILES: CN1CCC[C@H]1COc1nc2c(c(N3CCN(S(C)(=O)=O)[C@@H](CC#N)C3)n1)CCN(c1cccc3cccc(Cl)c13)C2
Effect on: binding
Action: competitor
Method: NanoBRET
Cells: HEK293
KRAS G12D: GTPase KRas (KRAS, Homo sapiens, UniProt P01116, G12D)
target	setting	normalized BRET
KRAS G12D	15.2 nM	92.5% and 91.5% and 94.8%
GTPase KRas (KRAS, Homo sapiens, UniProt P01116, G13D)	1.24 µM	41.5% and 36.8% and 41%
GTPase KRas (KRAS, Homo sapiens, UniProt P01116, Q61R)	3.7 µM	69.5% and 64.7% and 91.9%
KRAS G12D	11.1 µM	75.4% and 54.8% and 70.6%
KRAS G12D	45.7 nM	97.3% and 94.1% and 93.9%
GTPase KRas (KRAS, Homo sapiens, UniProt P01116, Q61L)	11.1 µM	27.3% and 22.6% and 21.8%
GTPase KRas (KRAS, Homo sapiens, UniProt P01116, Q61H)	33.3 µM	11.3% and 8.84% and 7.46%
KRAS G12D	1.24 µM	87.6% and 78.6% and 90.2%

Study 2
Compound: NS(=O)(=O)c1cc(NC(=O)C2(c3ccccc3Cl)CC2)ccc1Oc1cccc(Cl)c1
Method: competition with immobilised ligand
Tested at: 1 µM
target	test	remaining binding [%]
Tyrosine-protein kinase ABL1, phosphorylated (ABL1, Homo sapiens, UniProt P00519, E255K)	binding	72
CAMKK1 (Homo sapiens, UniProt Q8N5S9)	cell-free assay	100
TLK1 (Homo sapiens, UniProt Q9UKI8)	cell-free assay	99
ULK3 (Homo sapiens, UniProt Q6PHR2)	cell-free assay	83
Tyrosine-protein kinase JAK1, JH1 (JAK1, Homo sapiens, UniProt P23458)	cell-free assay	90
PRKAA2 (Homo sapiens, UniProt P54646)	cell-free assay	87
MAP4K4 (Homo sapiens, UniProt O95819)	cell-free assay	100
Non-receptor tyrosine-protein kinase TYK2, JH2 (TYK2, Homo sapiens, UniProt P29597)	cell-free assay	80
MAP3K13 (Homo sapiens, UniProt O43283)	cell-free assay	100
RIOK2 (Homo sapiens, UniProt Q9BVS4)	cell-free assay	89
TBK1 (Homo sapiens, UniProt Q9UHD2)	cell-free assay	62
TGFBR2 (Homo sapiens, UniProt P37173)	cell-free assay	64
PIK3CA (Homo sapiens, UniProt P42336, C420R)	cell-free assay	100
EPHB4 (Homo sapiens, UniProt P54760)	cell-free assay	57
MAPK12 (Homo sapiens, UniProt P53778)	cell-free assay	54
Tyrosine-protein kinase ABL1, phosphorylated (ABL1, Homo sapiens, UniProt P00519, T315I)	cell-free assay	75
NIM1K (Homo sapiens, UniProt Q8IY84)	cell-free assay	86
SIK3 (Homo sapiens, UniProt Q9Y2K2)	cell-free assay	87
MAP3K10 (Homo sapiens, UniProt Q02779)	cell-free assay	100
PRKCH (Homo sapiens, UniProt P24723)	cell-free assay	100

Study 3
Species: mouse
Matrix: microsomes or S9
Tested at: 2 µM
Time: 0.5 h
SMILES	remaining compound
Cc1cc(NC(=O)C(C)c2ccc(Cl)s2)nc(=O)[nH]1 (stereo not drawn)	> 100%
CC1=CC(C)(C)N2C(=O)C3(NCCc4c3[nH]c3ccccc43)c3cccc1c32 (stereo not drawn)	0.157%
CC(=O)c1c(NC2CCCc3ccccc32)[nH]c2c(-c3ccccc3)cccc2c1=O (stereo not drawn)	> 99%
Cc1ccc(OC(C)C)c(CN(CCO)CCO)c1	58.7%
OCCN1CCN(Cc2nc(O)c3ccccc3n2)CC1	> 100%
Cc1c(S(=O)(=O)N2CCN(CC(=O)NCc3ccccc3)S(=O)(=O)CC2)sc2ccc(Cl)cc12	2.86%
CC(C)CN(CCNS(=O)(=O)c1ccc(-c2ccc(=O)[nH]n2)s1)CC(C)C	0.0738%
CN(Cc1cnn(-c2ccccc2)c1)c1ccc(C#N)cn1	0.394%
CC(C)N(/C(=N/c1c(F)cccc1F)Nc1ccc2c(c1)C=CC(C)(C)O2)C(C)C	1.64%
CCc1cnc(N2CCC(N(C)c3ncnc4c(-c5ccc6c(c5)CN(C)C6=O)csc34)CC2)nc1	58.7%

Study 4
Target: Serine/threonine-protein kinase PLK1 (PLK1, Homo sapiens, UniProt P53350)
Sequence of UniProt P53350 (whole entry, looked up): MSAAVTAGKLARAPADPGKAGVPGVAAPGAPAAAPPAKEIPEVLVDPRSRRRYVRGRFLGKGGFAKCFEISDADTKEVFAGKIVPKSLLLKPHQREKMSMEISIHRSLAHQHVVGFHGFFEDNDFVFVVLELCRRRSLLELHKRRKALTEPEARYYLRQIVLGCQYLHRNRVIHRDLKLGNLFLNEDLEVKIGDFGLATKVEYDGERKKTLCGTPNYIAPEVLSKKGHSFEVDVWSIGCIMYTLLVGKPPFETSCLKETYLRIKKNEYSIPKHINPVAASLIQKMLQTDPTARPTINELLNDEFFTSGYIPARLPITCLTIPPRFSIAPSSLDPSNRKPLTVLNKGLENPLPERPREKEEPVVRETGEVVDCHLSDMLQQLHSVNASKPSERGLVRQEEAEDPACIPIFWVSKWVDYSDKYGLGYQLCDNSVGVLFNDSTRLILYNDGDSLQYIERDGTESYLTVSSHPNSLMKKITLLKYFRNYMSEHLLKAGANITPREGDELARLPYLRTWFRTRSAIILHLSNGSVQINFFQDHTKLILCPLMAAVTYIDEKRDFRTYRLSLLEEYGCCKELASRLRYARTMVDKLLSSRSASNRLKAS
Effect on: enzyme activity
Action: inhibitor
Tested at: 0.5 µM
Baseline: control
SMILES	remaining activity [%]
O=c1c2ccccc2[nH]c(=S)n1CCN1CCC(=C(c2ccc(F)cc2)c2ccc(F)cc2)CC1	100
COc1ccc(C(=O)Nc2sc3c(c2C(N)=O)CCCC3)cc1OC	99
O=C(O)c1ccc2c3c1cccc3c(=O)n1c3ccccc3nc21	110
O=C1NC(=O)C(c2cn(CCCO)c3ncccc23)=C1c1cnccn1	103
O=C(CCCc1ccc(-c2ccccc2F)cc1)Nc1ccc(O)cc1	95.5
Cn1c2ccccc2c2c3c(c4c5ccccc5n(CCC#N)c4c21)CNC3=O	103
CN(C)c1ccc(C=C2C(=O)Nc3ccccc32)cc1	103
C#Cc1cccc(Nc2ncnc3cc(OCCOC)c(OCCOC)cc23)c1	100
Oc1ccc(-c2nc(-c3ccncc3)c(-c3ccc(F)cc3)[nH]2)cc1	100
CNC(=O)c1cc(Oc2ccc(NC(=O)Nc3ccc(Cl)c(C(F)(F)F)c3)cc2)ccn1	98.1
OCC(O)CCON=C1C(c2c(O)[nH]c3ccccc23)=Nc2ccccc21 (stereo not drawn)	103
NCCNc1ncc(C(N)=O)c(Nc2cccc(C(F)(F)F)c2)n1	94.8
O=S(=O)(c1cccc2cnccc12)N1CCCNCC1	103
Nc1ccc2ncnc(NCCc3ccc(Oc4ccccc4)cc3)c2c1	91.1
CO[C@H]1C[C@@H]2CC[C@@H](C)[C@@](O)(O2)C(=O)C(=O)N2CCCC[C@H]2C(=O)O[C@H]([C@H](C)C[C@@H]2CC[C@@H](O)[C@H](OC)C2)CC(=O)[C@H](C)/C=C(\C)[C@@H](O)[C@@H](OC)C(=O)[C@H](C)C[C@H](C)/C=C/C=C/C=C/1C	97.8
Cc1nc(-c2ccccc2)c(-c2ccncc2)o1	104

Excerpt of the above (study 4):
SMILES	remaining activity [%]
Cn1c2ccccc2c2c3c(c4c5ccccc5n(CCC#N)c4c21)CNC3=O	103
Nc1ccc2ncnc(NCCc3ccc(Oc4ccccc4)cc3)c2c1	91.1
CNC(=O)c1cc(Oc2ccc(NC(=O)Nc3ccc(Cl)c(C(F)(F)F)c3)cc2)ccn1	98.1
O=c1c2ccccc2[nH]c(=S)n1CCN1CCC(=C(c2ccc(F)cc2)c2ccc(F)cc2)CC1	100
Cc1nc(-c2ccccc2)c(-c2ccncc2)o1	104
NCCNc1ncc(C(N)=O)c(Nc2cccc(C(F)(F)F)c2)n1	94.8
Oc1ccc(-c2nc(-c3ccncc3)c(-c3ccc(F)cc3)[nH]2)cc1	100
OCC(O)CCON=C1C(c2c(O)[nH]c3ccccc23)=Nc2ccccc21 (stereo not drawn)	103
